{"data": "Measurements collected from several papers", "note": "Protocols differ between the studies behind these lines. Values joined by “and” are separate records of one study, mostly repeats; a detail may differ. Numbers after ± are the reported error."}
{"Structure (SMILES)": "O=C(Nc1cnccc1Cl)N1CCN(Cc2ccc3c(c2)OC(F)(F)O3)CC1", "system": "culture medium without cells", "setting": "100 nM, 24 h", "measurement": "concentration", "result": "93.3 ± 2.8 nM"}
{"Structure (SMILES)": "CC(C)(O)c1cc(Nc2cc(Oc3cn(C4CC4)nc3C3CCOCC3)ccn2)ccn1", "assay": "refers to: Asthenia", "system": "Japanese patients with advanced cancer", "setting": "oral, dose not given, any grade", "measurement": "treatment-emergent adverse events", "result": "0%"}
{"Structure (SMILES)": "Cc1[nH]c(C)c(S(=O)(=O)Nc2ccc(S(F)(F)(F)(F)F)cc2)c1C(=O)N1CCC(F)(F)C1", "system": "mice, brain", "setting": "intraperitoneal, 40 mg/kg", "measurement": "AUC(0-inf)", "result": "24300 ng·h/g"}
{"Structure (SMILES)": "Nc1nc2cc(-c3ccc4ncc(C(=O)N5CCOCC5)n4c3)ccc2o1", "assay": "refers to: Diarrhea, any cause, all grades", "system": "patients with advanced solid tumours", "setting": "dose not given", "measurement": "patients with adverse events", "result": "44%"}
{"Structure (SMILES)": "C[C@@H]1OC(=O)NN=C1c1ccc(-c2ccc(F)cc2)c(C(F)(F)F)c1", "assay": "phase I trial, refers to: Ascites all grades", "system": "human patients", "setting": "dose not given, all dose groups", "measurement": "patients with adverse event", "result": "20%"}
{"Structure (SMILES)": "CCCCCOc1ccc(-c2ccc(-c3ccc(C(=O)N[C@H]4C[C@@H](O)[C@@H](OCC[N+](C)(C)C)NC(=O)[C@@H]5[C@@H](O)[C@@H](C)CN5C(=O)[C@H]([C@@H](C)O)NC(=O)[C@H]([C@H](O)[C@@H](O)c5ccc(O)cc5)NC(=O)[C@@H]5C[C@@H](O)CN5C(=O)[C@H]([C@@H](C)O)NC4=O)cc3)cc2)cc1", "system": "adult patients in ICU, plasma", "setting": "intravenous, 400 mg loading, after first dose, geometric mean", "measurement": "Cmax", "result": "17200 ng/mL"}
{"Structure (SMILES)": "CCN1[C@@H](C(=O)NC23CCC(C(=O)O)(CC2)CC3)[C@H](c2cccc(Cl)c2F)[C@]2(C(=O)Nc3cc(Cl)ccc32)C12CCCCC2", "system": "patients with advanced solid tumours", "setting": "oral, 150 mg", "measurement": "grade ≥3 Leukopenia incidence", "result": "37.5%"}
{"Structure (SMILES)": "COc1cc2c(Oc3ccc4[nH]c(C)cc4c3F)ccnc2cc1OCC1(N)CC1", "system": "paediatric recurrent refractory sarcoma", "setting": "concentration not given, whole group", "measurement": "grade 3 Fever", "result": "0%"}
{"Structure (SMILES)": "Cc1cccc(Cn2nc(C3CC3)c3c(NC(=O)c4cnc5cc(OCCN6CCN(C)CC6)ccn45)cccc32)n1", "assay": "refers to: Anemia", "system": "human pancreatic ductal adenocarcinoma", "setting": "oral, dose not given, all-causality", "measurement": "adverse events incidence", "result": "33.3%"}
{"Structure (SMILES)": "CO[C@H]1C[C@@H]2CC[C@@H](C)[C@@](O)(O2)C(=O)C(=O)N2CCCC[C@H]2C(=O)O[C@H]([C@H](C)C[C@@H]2CC[C@@H](OC(=O)NCCOCCOCCOCCOCCOCCOCCOCCOCCC(=O)N3CCc4cc(Cn5nc(-c6ccc7oc(N)nc7c6)c6c(N)ncnc65)ccc4C3)[C@H](OC)C2)C[C@@H](O)[C@H](C)/C=C(\\C)[C@@H](O)[C@@H](OC)C(=O)[C@H](C)C[C@H](C)/C=C/C=C/C=C/1C", "system": "patients with advanced solid tumours", "setting": "intravenous, 10 mg weekly, any grade", "measurement": "AE leading to dose interruption", "result": "87.5%"}
{"Structure (SMILES)": "[O-][S+]1CCc2nc(N3CCC(c4ncc(Cl)cn4)CC3)nc(NC3(CO)CCC3)c21 (centres unmarked)", "assay": "refers to: Diarrhoea", "system": "healthy male humans", "setting": "multiple doses, all groups", "measurement": "adverse event incidence", "result": "6.3%"}
{"Structure (SMILES)": "CC(C)[C@H](C(=O)O[C@H](C#N)c1cccc(Oc2ccccc2)c1)c1ccc(Cl)cc1", "assay": "refers to: CYP2C8", "system": "human, age 6 months", "measurement": "enzyme contribution to clearance", "result": "0.98%"}
{"Structure (SMILES)": "CC[C@H](C)[C@H](NC(=O)[C@H](Cc1ccccc1)NC(=O)[C@H](CCC(=O)O)NC(=O)[C@H](CCCNC(=N)N)NC(=O)[C@H](C)NC(=O)[C@H](C)NC(=O)[C@H](CCC(N)=O)NC(=O)[C@H](CCC(=O)O)NC(=O)[C@H](CCC(=O)O)NC(=O)[C@H](CC(C)C)NC(=O)[C@H](Cc1ccc(O)cc1)NC(=O)[C@H](CO)NC(=O)[C@H](CO)NC(=O)[C@@H](NC(=O)[C@H](CC(=O)O)NC(=O)[C@H](CO)NC(=O)[C@@H](NC(=O)[C@H](Cc1ccccc1)NC(=O)[C@@H](NC(=O)CNC(=O)[C@H](CCC(=O)O)NC(=O)[C@H](C)NC(=O)CCc1cnc[nH]1)[C@@H](C)O)[C@@H](C)O)C(C)C)C(=O)N[C@@H](C)C(=O)N[C@@H](Cc1c[nH]c2ccccc12)C(=O)N[C@@H](CC(C)C)C(=O)N[C@H](C(=O)N[C@@H](CCCNC(=N)N)C(=O)NCC(=O)N[C@@H](CCCNC(=N)N)C(=O)N[C@@H](CCCCNC(=O)COCCOCCNC(=O)COCCOCCNC(=O)CC[C@H](NC(=O)CCCCCCCCCCCCCCCCC(=O)O)C(=O)O)C(=O)NCC(=O)NCC(=O)N[C@@H](CO)C(=O)N[C@@H](CCCCNC(=O)[C@H](CCCCNC(=O)[C@H](CCCCNc1c(NCCCCCN(O)C(=O)CCC(=O)NCCCCCN(O)C(=O)CCC(=O)NCCCCCN(O)C(C)=O)c(=O)c1=O)Nc1c(NCCCCCN(O)C(=O)CCC(=O)NCCCCCN(O)C(=O)CCC(=O)NCCCCCN(O)C(C)=O)c(=O)c1=O)NC(=O)[C@H](CCCCNc1c(NCCCCCN(O)C(=O)CCC(=O)NCCCCCN(O)C(=O)CCC(=O)NCCCCCN(O)C(C)=O)c(=O)c1=O)Nc1c(NCCCCCN(O)C(=O)CCC(=O)NCCCCCN(O)C(=O)CCC(=O)NCCCCCN(O)C(C)=O)c(=O)c1=O)C(=O)O)C(C)C [zirconium-89 labelled]", "assay": "ex vivo gamma counting", "system": "Sprague-Dawley rat, male, liver", "setting": "intravenous, 1 nmol, 24 h", "measurement": "tissue uptake", "result": "3.1 %ID/g and 3.83 %ID/g and 3.27 %ID/g and 3.6 %ID/g and 3.51 %ID/g"}
{"Structure (SMILES)": "O[C@H]1CCCN[C@@H]1CCCn1cnc2c(Cl)c(Cl)ccc21", "system": "healthy CYP2D6 intermediate metabolizers, plasma", "setting": "oral, 150 mg multiple doses", "measurement": "Cmax at steady state", "result": "351 ng/mL"}
{"note": "Repeated from above:"}
{"Structure (SMILES)": "Nc1nc2cc(-c3ccc4ncc(C(=O)N5CCOCC5)n4c3)ccc2o1", "assay": "refers to: Diarrhea, any cause, all grades", "system": "patients with advanced solid tumours", "setting": "dose not given", "measurement": "patients with adverse events", "result": "44%"}
{"Structure (SMILES)": "C[C@@H]1OC(=O)NN=C1c1ccc(-c2ccc(F)cc2)c(C(F)(F)F)c1", "assay": "phase I trial, refers to: Ascites all grades", "system": "human patients", "setting": "dose not given, all dose groups", "measurement": "patients with adverse event", "result": "20%"}
